Published values of several laboratories.
Each line is one published result; not all experiments were run side by side. Several values in a cell are separate wells, animals, samples, runs or records. ± gives the spread as reported.

Compound | test | system | setting | how to read | quantity | result
C[C@@H](NC(=O)N1C(=O)[C@H](Cc2ccnc(N)c2)[C@H]1C(=O)O)C1CCCCC1 |  | human, plasma | continuous intravenous infusion, 0.3 mg/kg/h, days 1 to 6 of 5-day infusion, median | relative to: baseline | time to maximum PT over baseline | 121 h
C=CC(=O)Nc1cc(Nc2ncc(C(=O)OC(C)C)c(-c3cn(C)c4ccccc34)n2)c(OC)cc1N(C)CCN(C)C |  | EGFR-mutant NSCLC patients | dose not given |  | responders with duration ≥ 6 months | 59%
Cc1n[nH]c2ccc(-c3cc(OC[C@@H](N)Cc4ccccc4)cnc3-c3ccoc3)cc12 | kinase binding, competitor, MIB/MS competition, item: RCK2 | Candida albicans cell lysate | 100 nM | relative to: DMSO | log2 fold change | -0.0134
NCC(=O)Nc1cncc(-c2nn3c(=O)cc(N4CCNCC4)nc3s2)c1 | ADP-induced platelet aggregation, light transmission aggregometry | human stable CAD patients on aspirin, platelets ex vivo | 0.075 mg/kg, 240 min post dose, with: 20 µM ADP | relative to: placebo difference | inhibition of platelet aggregation | 4.18%
C[C@H]1C[C@H]2CSC(N)=N[C@@]2(c2nc(NC(=O)c3ccc(OC(F)F)cn3)cs2)CO1 | item: Aβx-40 | healthy adults, plasma | 275 mg once daily, day 10 | relative to: placebo | percent change from baseline | -74.1%
N#Cc1ccc2c(-c3ccncc3)c(-c3ccc(F)cc3)nn2c1 | kinase binding, competitor, MIB/MS competition, item: PKH3 | Candida albicans cell lysate | 100 nM | relative to: DMSO | log2 fold change | 0.0286
CC(C)[C@H](NC(=O)[C@H](Cc1ccc(O)cc1)NC(=O)[C@H](Cc1ccc(O)cc1)NC(=O)[C@@H]1CCCN1C(=O)[C@H](CCC(=O)O)NC(=O)[C@H](CCC(=O)O)NC(=O)[C@H](Cc1c[nH]c2ccccc12)NC(=O)[C@@H]1CCCN1C(=O)[C@@H](NC(=O)[C@H](CCC(N)=O)NC(=O)c1ccc2c(c1)C(=O)OC21c2ccc(O)cc2Oc2cc(O)ccc21)C(C)C)C(=O)N[C@H](C(=O)N[C@@H](CCCCN)C(=O)N[C@@H](CCCCN)C(=O)N[C@@H](CO)C(=O)N[C@@H](CO)C(=O)NCC(=O)NCC(N)=O)C(C)C | added benefit of NERVE | human head and neck surgery, nerves | 500 mg, slight added benefit | relative to: white light | share of responses | 35.7%
N#Cc1ccc2c(c1)[C@H]1CCCN(C(=O)c3ccc4[nH]cnc4c3)[C@H]1C2 |  | human, plasma | 160 mg, day 15, 360 h | relative to: placebo and baseline | change in 1.5-AHG | -3.3%
O=c1cc(-c2ccc(O)cc2)oc2c([C@@H]3OC[C@H](O)[C@H](O)[C@H]3O)c(O)c([C@@H]3O[C@H](CO)[C@@H](O)[C@H](O)[C@H]3O)c(O)c12 | item: HW/TL, LV mass, LVPWd | HFpEF mice, AngII-induced | oral, 20 and 40 mg/kg/day |  | cardiac hypertrophy | decreased
COC[C@@H](c1ccc(C(F)(F)F)cc1)N1CCN(C2(C)CCN(C(=O)c3c(C)ncnc3C)CC2)C[C@@H]1C |  | HIV-1 infected patients, plasma | 5 mg, week 16, with optimized background regimen | relative to: baseline | change in HIV-1 RNA | -1.95 log10 copies/mL
Cc1nn(-c2nc3c(F)cc(F)cc3s2)c(O)c1C(c1ccc(C(F)(F)F)cc1)c1c(C)nn(-c2nc3c(F)cc(F)cc3s2)c1O | ELISA | mouse, cerulein-induced acute pancreatitis, serum | dose not given, 8 h |  | IL-6 level | 118 pg/mL and 117 pg/mL and 122 pg/mL and 95.6 pg/mL and 121 pg/mL and 111 pg/mL
CC(C)c1c(C(=O)Nc2ccccc2)c(-c2ccccc2)c(-c2ccc(F)cc2)n1CC[C@@H](O)C[C@@H](O)CC(=O)O | Oil Red O staining | ApoE-/- mouse on high-fat diet | oral gavage, 20 doses every three days, 72 h |  | aortic arch plaque area | 4.62 ± 0.81%
Cc1ccc(C(=O)Nc2ccc(CN3CCN(C)CC3)c(C(F)(F)F)c2)cc1C#Cc1cnc2cccnn12 | platelet aggregation | platelet-rich plasma | 0.1 µM, DMSO 130.6, with: collagen 2 mg/mL |  | lag time | 228 s
C=CCn1c(=O)c2cnc(Nc3ccc(N4CCN(C)CC4)cc3)nc2n1-c1ccc2c(n1)[C@@](O)(CC)CC2 |  | A2780 xenograft, BALB/c nude mice | oral, 80 mg/kg once daily x 8, day 9 | relative to: vehicle | tumour growth inhibition | 20.2%
CO[C@H]1CC[C@H](N2C(=O)CNc3ncc(-c4ccc(C(C)(C)O)nc4)nc32)CC1 | flow cytometry | stimulated T cells, human, blood | 60 mg single dose, 5 h, median | relative to: baseline | p4EBP1 change from baseline | -36.6%
C[C@H](Oc1ccc(Br)cc1-c1ccon1)C(=O)O | muscle velocity recovery cycles | human, tibialis anterior muscle | 1200 mg single dose, 3.5 h post-dose, frequency ramp, first response at 15 Hz | relative to: placebo | latency change | -1.51%
CN(C)C(=O)c1cc2cnc(Nc3ccc(N4CCNCC4)cn3)nc2n1C1CCCC1 | RNA-seq GSEA, item: HALLMARK_COAGULATION | MB002 tumour | concentration not given, in vivo | relative to: vehicle, direction not given | normalized enrichment score | -0.927
NC(=O)c1cnc2[nH]ccc2c1N[C@@H]1[C@@H]2CC3C[C@H]1C[C@@](O)(C3)C2 | flow cytometry | Japanese healthy men, blood | oral, 30 mg twice daily, 72 h after day 7 dose | relative to: baseline | total naive T-cell change | -1.3%
Oc1ccc(C2NCCc3cc(O)c(O)cc32)cc1O (centres unmarked) | ferrozine | cell-free | 100 µM, DMSO solvent |  | Fe2+ chelation | 95.1 ± 1.54%
COc1nc(-c2cc(C)c(N[C@@H](C)c3cc(F)cc(F)c3)nn2)ccc1-n1cnc(C)c1 | item: Aβ42 | rat Sprague-Dawley male, CSF | oral, 25 mg/kg daily for 9 days, 4 h after dose | relative to: vehicle | change in level | 80%
OC(CCN1CCCCC1)(c1ccccc1)C1CC2C=CC1C2 (centres unmarked) | resting-state EEG | healthy elderly humans | oral, 4 mg, eyes closed, LS mean |  | EEG Beta1-power Pz-O2 | 4.3 µV²

Compound | test | system | setting | how to read | quantity | result
N#Cc1ccc2c(c1)[C@H]1CCCN(C(=O)c3ccc4[nH]cnc4c3)[C@H]1C2 | item: diastolic blood pressure | human | 240 mg once daily, day 28, adjusted mean | relative to: placebo | change from baseline | 1.2 mmHg
COc1ccc(Oc2cc(N(C)CCOc3ccc(CC4SC(=O)NC4=O)cc3)ncn2)cc1 (centres unmarked) |  | type 2 diabetes patients | 0.5 mg once daily |  | HbA1c | 7.7 ± 1.23%
CC(C)NCC(O)c1ccc(O)c(O)c1 (centres unmarked) |  | ventricular cardiomyocytes, C57BL/6 mouse | dose not given, 0.564 s |  | sarcomere length | 1.53 µm
Cc1ccc(C(=O)OCc2ccc([C@@H](CN)C(=O)Nc3ccc4cnccc4c3)cc2)c(C)c1 | tonometry | Macaca cyclopis, ocular normotensive | ocular, 0.02%, 72 h |  | IOP | 17.8 mmHg
COc1cccc2c(N3CCC(CCP(=O)(O)O)CC3)ncnc12 |  | mouse, EMT6 tumour, tumour | 50 mg/kg |  | duration of cGAMP increase | > 24 h
Cn1cc(Nc2nccc(-c3ccc4c(c3)CN(C3COC3)CC[C@H]4NC(=O)c3cn(C(C)(C)C)nn3)n2)cn1 | item: Dermatan Sulfate Degradation | splenic B cells, Mus musculus | 30 mg/kg, with: IgD activation | relative to: vehicle, direction not given | pathway activation z-score | 1.34
COc1cc2cc(-c3ccc(CC(=O)Nc4cc(C(C)(C)C(F)(F)F)no4)cn3)cnc2cc1OC | RECIST v1.1 | RET-altered advanced solid tumour patients | oral, 10 mg once daily, phase I |  | partial response as best response | 0%
C[C@@H]1CCC[C@H](n2cnc(-c3cc(Cl)ccc3-n3cc(Cl)nn3)cc2=O)c2cc(ccn2)-c2c(cnn2C(F)F)NC1=O |  | rat plasma | IC2× aPTT, Actin FS reagent |  | concentration for aPTT prolongation | > 40 µM
O=C(O)CNC(=O)Cc1ccccc1 |  | ventricular cardiomyocytes, C57BL/6 mouse | dose not given, 0.452 s |  | sarcomere length | 1.71 µm
CSCCNc1nc(SCCC(F)(F)F)nc2c1ncn2[C@@H]1O[C@H](COP(=O)(O)OP(=O)(O)C(Cl)(Cl)P(=O)(O)O)[C@@H](O)[C@H]1O | ADP-induced platelet aggregation, LTA, >46% aggregation | human patients, platelet-rich plasma | dose not given, 1 h, with: ADP 5 µM |  | patients with high reactivity | 55%
CCCCCCCCCCCCCCCCCC1NCCc2cc(O)c(O)cc21 (centres unmarked) | ferrozine | DMSO | 100 µM |  | Fe2+ chelation | 22.4 ± 1.53%
c1ccc(-c2n[nH]cc2-c2ccnc3ccccc23)nc1 | kinase binding, competitor, MIB/MS competition, item: RIM8 | Candida albicans cell lysate | 10 µM | relative to: DMSO | log2 fold change | 1.59
CC1(C)CCC(c2ccc(Cl)cc2)=C(CN2CCN(c3ccc(C(=O)NS(=O)(=O)c4ccc(N[C@H](CCN5CCOCC5)CSc5ccccc5)c(S(=O)(=O)C(F)(F)F)c4)cc3)CC2)C1 | cell killing | primary canine neoplastic B cells, dog 40 | 24 h |  | EC50 | 2.72 µM
O=C(NC[C@H]1CN(c2ccc(N3CCOCC3=O)cc2)C(=O)O1)c1ccc(Cl)s1 |  | human mild renal impairment, plasma | 10 mg, geometric mean, unit not given | relative to: baseline | prothrombin time AUC(0-48h) | 99.5
Cn1cc([C@H]2C[C@H]3CSC(N)=N[C@@]3(c3ccc(F)cc3F)CO2)cn1 | item: Aβx-40 | wild-type mouse, brain | subcutaneous, 3 mg/kg, 3 h |  | Aβ40 level | 2.87 ng/g
CC(=O)Oc1cc2c(s1)CCN(C(C(=O)C1CC1)c1ccccc1F)C2 (centres unmarked) | light transmittance aggregometry | human patients, platelet-rich plasma | dose not given, 15 min, with: ADP 20 µM | relative to: patients | patients with IPA above 80% | 0%
CN[C@@H]1COc2c(S(=O)(=O)NC(=O)Nc3c4c(cc5c3CCC5)CCC4)cnn2C1 | item: IL-18 | human participants, whole blood ex vivo | 150 mg single dose, 8 h, IL-18, circulating, adjusted for, with: LPS/ATP | relative to: baseline | inhibition | 94.4%
COc1ncnn2ccc(-c3cnc4nc(C)n(Cc5nnc([C@@H](C)F)o5)c4c3)c12 |  | Homo sapiens, relapsed or refractory AML or MDS | dose not given, sample A AML patients |  | CRi rate | 8.3%
CN(C(=O)n1cnc(-c2ccc[n+]([O-])c2)c1)C1CCCCC1 |  | mice, formalin paw test | oral, 3 mg/kg, late phase | relative to: vehicle, direction not given | change in licking score | -41%
COc1cc(Nc2ncc3c(n2)-c2ccc(Cl)cc2C(c2c(F)cccc2OC)=NC3)ccc1C(=O)O |  | mouse, KT-10 Wilms tumour xenograft | 2.6 mg/kg | direction not given | median response score | 0

For quick reference, copied from above:
Compound | test | system | setting | how to read | quantity | result
C=CCn1c(=O)c2cnc(Nc3ccc(N4CCN(C)CC4)cc3)nc2n1-c1ccc2c(n1)[C@@](O)(CC)CC2 |  | A2780 xenograft, BALB/c nude mice | oral, 80 mg/kg once daily x 8, day 9 | relative to: vehicle | tumour growth inhibition | 20.2%
CC1(C)CCC(c2ccc(Cl)cc2)=C(CN2CCN(c3ccc(C(=O)NS(=O)(=O)c4ccc(N[C@H](CCN5CCOCC5)CSc5ccccc5)c(S(=O)(=O)C(F)(F)F)c4)cc3)CC2)C1 | cell killing | primary canine neoplastic B cells, dog 40 | 24 h |  | EC50 | 2.72 µM
Cc1nn(-c2nc3c(F)cc(F)cc3s2)c(O)c1C(c1ccc(C(F)(F)F)cc1)c1c(C)nn(-c2nc3c(F)cc(F)cc3s2)c1O | ELISA | mouse, cerulein-induced acute pancreatitis, serum | dose not given, 8 h |  | IL-6 level | 118 pg/mL and 117 pg/mL and 122 pg/mL and 95.6 pg/mL and 121 pg/mL and 111 pg/mL
N#Cc1ccc2c(c1)[C@H]1CCCN(C(=O)c3ccc4[nH]cnc4c3)[C@H]1C2 | item: diastolic blood pressure | human | 240 mg once daily, day 28, adjusted mean | relative to: placebo | change from baseline | 1.2 mmHg
CC(C)NCC(O)c1ccc(O)c(O)c1 (centres unmarked) |  | ventricular cardiomyocytes, C57BL/6 mouse | dose not given, 0.564 s |  | sarcomere length | 1.53 µm
CN(C(=O)n1cnc(-c2ccc[n+]([O-])c2)c1)C1CCCCC1 |  | mice, formalin paw test | oral, 3 mg/kg, late phase | relative to: vehicle, direction not given | change in licking score | -41%
COc1nc(-c2cc(C)c(N[C@@H](C)c3cc(F)cc(F)c3)nn2)ccc1-n1cnc(C)c1 | item: Aβ42 | rat Sprague-Dawley male, CSF | oral, 25 mg/kg daily for 9 days, 4 h after dose | relative to: vehicle | change in level | 80%
